# Measured values pooled from the literature.
# Parts stem from different laboratories: compare values within a part only. Changes are numbered by the printed parent chain.

# Block 1 — technique: DHFR PCA, deep sequencing; matrix: yeast; together with: (+)-ABA 1.4 µM; reference: wild-type fitted maximum; reading: higher = stronger binding
# Target: ABI1, truncated, D143A, DHFR fusion (Arabidopsis thaliana)
# Setting: methotrexate growth selection, single substitutions
# Parent: PYL1, truncated, DHFR fusion (Arabidopsis thaliana); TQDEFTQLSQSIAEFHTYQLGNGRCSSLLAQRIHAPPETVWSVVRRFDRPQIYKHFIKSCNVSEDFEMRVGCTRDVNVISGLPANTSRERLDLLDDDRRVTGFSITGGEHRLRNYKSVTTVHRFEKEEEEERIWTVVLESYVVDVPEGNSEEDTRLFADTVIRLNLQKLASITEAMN
Change,relative binding score [%]
K168Q,46
I12F,-4.19
G148P,4.64
E147Q,43.2
G107M,3.42
E152R,19
D92N,3.5
R132G,86
I57A,-5.85
S87P,13.5
K168W,48.9

# Block 2 — technique: RNA Bind-n-Seq; molecule type: RNA; matrix: in vitro; concentration: 365 nM; reference: no-protein control; reading: higher = stronger binding
# Target: RNA binding protein fox-1 homolog 2, RRM domain, GST-SBP tag (RBFOX2, Homo sapiens, UniProt O43251-10, residues 100-194)
# Setting: natural RNA segment, single round, ends assumed
# Shared flanks, not repeated: GGGAGUUCUACAGUCCGACGAUC … UGGAAUUCUCGGGUGCCAA
# Construct (chain): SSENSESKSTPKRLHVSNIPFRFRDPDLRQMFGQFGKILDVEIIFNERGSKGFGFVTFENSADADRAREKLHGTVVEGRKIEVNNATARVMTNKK
Sequence,RBNS enrichment (R)
CCAUGACAGACUGUGCUCCUAUCCUGGGUUGAGUCCCGAUGCAUAUUCCUGCUUCAUUUCCUUUUCUCAAGGGCCGCUUCCCCGGACCCUCCUGUCAUAGGCCCCACUUG,0.537
CGAGGGUCCCCUGUGGCACCUAGCAUGGUGCACAGCACAUUAGAAGUGCUCAAAAACAUCUGAUGACUGACUAAAGAUGCUAGGCGUGACACCGUUCCCUCCAAAAGCAG,0.209
AAUGAGUAAAUGGCUCACCAAUUUAUGCAUAGCCCUGCACAUGAGCAGAAUGUGACACUCAAAGCAUCCAUGCAGUACGCAUGUAACCUUGCACAGGAGUGGGGCUCUGG,2.13
UGGGAGGAUGGCUUGUGUCCAGAAGUUCGAGACCAGCCUGGACAACAUAGUGAGAUCCUAUCUCUAUAAAAAAUCAAAAAUUAGCCAGGCAUGGUGGUGCAUACCUAUAG,1.48
AGCCAUCCCACAAGUUCUAUACCAUAUUUUUAGUGACAGUUGAGGUUGUAGAUACACUUUAUAACAUUUUAUAGUUUAAAGAGCUUUAUUAAUGCAAUAAAUUAACUUUG,0.477
AUUGUGUGUAACCUGCACAAUGUGGAAAGCUGAUGAACCUGUGCCUCCGUGCUGUCAGUGUGGUGUGCUUUCUGCAUGGUUAUAUACUACUAGUAACUUUAUCAAAUUUC,0.762
CUUUUGUCAUUUGUUUUUUGGAGUAGUUUUGAAAAGUGUCUAUAUUGAGUACACUAUUGCUGUCCAUUGCUGCUGUGAAGCCCUAGCUGAAUAUAGAUGUACAAAUCAGU,0.667
GCAUGCGGCUAGUUCUAGUUAGUCUAUAUUGUUUGUUUUUUCAGUCUUCUUUUUCUAGCAUGCUUUACAUAGGAGAGAAUAAAGGGCUAUUUAAUAAGCAAUCCGGAUCU,39.3
UCUGUCCUUCCCCCCAGGAAACACAUGUUCAUUUGUGUGAUCAUGUAUAGACCUCAGAACGGAAGAUAGGACUGUAUAUAAUUGUAAUAAAUACCAGUUGCCACUAUUUA,0.375
AAGAAAGAGAUAAGGGACGCUACCUUGCUUUUCUGGCACAGGAAGCACAUGAUAAAGCAUGCUCAGAUGAGCUGGAACAGAUAUAGCUACCUGGUUCGUGUAAAUAAGAA,3.17
AUUUAGGCUUGACUGUUUUAAAACACCAUAAUGAAUGUAUAAUUAAUUUAUGUUAAAGUAUUAACCCUUUGUCACAAAGGAAUGGUAAUGUGAUUGGCUGCCUGUUAGCC,1.62

# Block 3 — target: CCNA2, cyclin fold, Cln2 fusion (human); technique: yeast growth competition, sequencing; matrix: yeast; setting: strong parent motif; reference: not given; reading: higher = stronger binding
# Parent: ORC1 docking peptide (human); PRARKRLELGNLG; partner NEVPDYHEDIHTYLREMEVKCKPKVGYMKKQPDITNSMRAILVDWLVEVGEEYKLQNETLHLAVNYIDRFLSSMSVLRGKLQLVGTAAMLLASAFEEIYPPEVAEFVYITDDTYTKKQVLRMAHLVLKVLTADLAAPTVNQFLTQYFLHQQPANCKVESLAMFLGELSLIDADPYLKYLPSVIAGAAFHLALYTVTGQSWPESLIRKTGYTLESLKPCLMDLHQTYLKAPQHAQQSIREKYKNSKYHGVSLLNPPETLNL
Change,normalised enrichment score
PRARKRLELGQLG [N11Q],4.66
PRARKRLELGNKG [L12K],4.57
PRARKRGELGNLG [L7G],0.737
PRLRKRLELGNLG [A3L],-0.477
PRSRKRLELGNLG [A3S],2.93
PRARGRLELGNLG [K5G],1.21
PRARCRLELGNLG [K5C],2.23
PRAIKRLELGNLG [R4I],0.408
PRARKRLELGNYG [L12Y],5.33

# Other studies, line by line
Molecule,target,test,system,setting,how to read,endpoint,value
"PhoQ, residues 284 288 289 292 302 303 WVSSAF","PhoP, residues 12 14 15 18 19 MHTVL (Escherichia coli, UniProt P23836)","Sort-seq, item: YFP reporter",E. coli,"PhoQ-PhoP variant library, together with: 10 µM Mg2+","reference: high Mg2+ state, higher = stronger signaling",fold induction,4.86
